Results gathered from unrelated publications.
Lines come from different studies, so protocols differ. Values joined by “and” are separate records of one study, mostly repeats; a detail may differ. Numbers after ± are the reported error. Ends that are not written are not given here.
Spike glycoprotein: Spike glycoprotein (Severe acute respiratory syndrome coronavirus 2, UniProt P0DTC2)
Chain of UniProt P02716 (whole entry, looked up): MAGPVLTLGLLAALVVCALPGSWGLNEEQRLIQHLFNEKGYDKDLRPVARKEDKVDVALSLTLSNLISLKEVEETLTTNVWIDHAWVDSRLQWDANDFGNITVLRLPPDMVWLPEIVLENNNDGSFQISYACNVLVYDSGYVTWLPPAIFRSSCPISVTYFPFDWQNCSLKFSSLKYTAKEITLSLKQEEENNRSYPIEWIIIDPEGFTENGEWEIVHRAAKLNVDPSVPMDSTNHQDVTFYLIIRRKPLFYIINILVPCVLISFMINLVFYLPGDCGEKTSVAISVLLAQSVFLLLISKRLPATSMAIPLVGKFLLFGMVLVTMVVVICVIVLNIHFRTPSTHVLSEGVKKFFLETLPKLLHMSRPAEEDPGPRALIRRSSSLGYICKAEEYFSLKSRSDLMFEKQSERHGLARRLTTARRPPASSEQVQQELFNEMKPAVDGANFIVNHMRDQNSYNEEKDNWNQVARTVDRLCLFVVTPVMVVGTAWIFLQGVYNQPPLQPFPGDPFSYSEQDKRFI
Chain of UniProt P20782 (whole entry, looked up): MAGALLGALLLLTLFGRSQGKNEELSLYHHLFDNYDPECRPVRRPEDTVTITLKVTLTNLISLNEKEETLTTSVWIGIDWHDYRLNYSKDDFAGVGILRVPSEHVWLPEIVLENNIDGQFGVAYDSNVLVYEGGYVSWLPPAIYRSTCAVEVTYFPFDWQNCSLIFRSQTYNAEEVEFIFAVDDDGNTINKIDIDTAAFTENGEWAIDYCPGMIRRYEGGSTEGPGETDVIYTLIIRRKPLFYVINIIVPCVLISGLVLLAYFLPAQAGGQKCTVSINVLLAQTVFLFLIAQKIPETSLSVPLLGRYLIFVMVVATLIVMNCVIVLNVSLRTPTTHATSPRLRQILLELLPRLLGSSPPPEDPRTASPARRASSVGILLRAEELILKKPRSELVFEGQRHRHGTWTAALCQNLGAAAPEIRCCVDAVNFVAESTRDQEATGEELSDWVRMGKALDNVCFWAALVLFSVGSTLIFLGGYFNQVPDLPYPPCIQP
Chain of UniProt P04756 (whole entry, looked up): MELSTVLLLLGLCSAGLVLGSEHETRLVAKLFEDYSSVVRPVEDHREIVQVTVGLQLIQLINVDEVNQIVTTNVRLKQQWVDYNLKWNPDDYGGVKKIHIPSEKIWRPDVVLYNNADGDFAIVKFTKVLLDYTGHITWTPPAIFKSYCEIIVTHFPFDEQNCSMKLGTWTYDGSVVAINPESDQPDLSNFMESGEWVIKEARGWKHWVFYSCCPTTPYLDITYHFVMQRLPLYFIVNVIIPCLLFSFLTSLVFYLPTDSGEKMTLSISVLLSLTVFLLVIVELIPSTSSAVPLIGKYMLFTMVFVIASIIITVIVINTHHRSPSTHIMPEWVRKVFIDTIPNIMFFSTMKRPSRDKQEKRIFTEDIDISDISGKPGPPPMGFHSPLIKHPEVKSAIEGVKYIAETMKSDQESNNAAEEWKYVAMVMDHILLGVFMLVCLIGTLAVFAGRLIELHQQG
Chain of UniProt P22459 (whole entry, looked up): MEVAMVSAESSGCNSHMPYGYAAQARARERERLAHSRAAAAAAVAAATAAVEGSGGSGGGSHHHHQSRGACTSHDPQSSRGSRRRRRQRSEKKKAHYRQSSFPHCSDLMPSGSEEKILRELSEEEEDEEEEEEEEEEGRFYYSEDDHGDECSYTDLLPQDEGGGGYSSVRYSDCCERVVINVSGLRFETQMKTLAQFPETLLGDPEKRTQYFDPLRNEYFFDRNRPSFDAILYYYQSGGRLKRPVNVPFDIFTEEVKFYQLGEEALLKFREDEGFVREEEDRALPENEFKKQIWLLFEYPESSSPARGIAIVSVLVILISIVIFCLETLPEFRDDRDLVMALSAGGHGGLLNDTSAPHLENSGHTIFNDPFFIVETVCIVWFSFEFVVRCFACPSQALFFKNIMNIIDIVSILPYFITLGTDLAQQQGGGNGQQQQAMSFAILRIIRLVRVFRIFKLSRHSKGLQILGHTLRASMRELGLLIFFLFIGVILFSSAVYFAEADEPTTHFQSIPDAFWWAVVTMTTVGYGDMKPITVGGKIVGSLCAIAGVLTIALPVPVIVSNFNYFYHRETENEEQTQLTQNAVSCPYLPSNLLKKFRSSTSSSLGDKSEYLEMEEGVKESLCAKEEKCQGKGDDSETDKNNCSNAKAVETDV
Chain of UniProt P0A8T7 (whole entry, looked up): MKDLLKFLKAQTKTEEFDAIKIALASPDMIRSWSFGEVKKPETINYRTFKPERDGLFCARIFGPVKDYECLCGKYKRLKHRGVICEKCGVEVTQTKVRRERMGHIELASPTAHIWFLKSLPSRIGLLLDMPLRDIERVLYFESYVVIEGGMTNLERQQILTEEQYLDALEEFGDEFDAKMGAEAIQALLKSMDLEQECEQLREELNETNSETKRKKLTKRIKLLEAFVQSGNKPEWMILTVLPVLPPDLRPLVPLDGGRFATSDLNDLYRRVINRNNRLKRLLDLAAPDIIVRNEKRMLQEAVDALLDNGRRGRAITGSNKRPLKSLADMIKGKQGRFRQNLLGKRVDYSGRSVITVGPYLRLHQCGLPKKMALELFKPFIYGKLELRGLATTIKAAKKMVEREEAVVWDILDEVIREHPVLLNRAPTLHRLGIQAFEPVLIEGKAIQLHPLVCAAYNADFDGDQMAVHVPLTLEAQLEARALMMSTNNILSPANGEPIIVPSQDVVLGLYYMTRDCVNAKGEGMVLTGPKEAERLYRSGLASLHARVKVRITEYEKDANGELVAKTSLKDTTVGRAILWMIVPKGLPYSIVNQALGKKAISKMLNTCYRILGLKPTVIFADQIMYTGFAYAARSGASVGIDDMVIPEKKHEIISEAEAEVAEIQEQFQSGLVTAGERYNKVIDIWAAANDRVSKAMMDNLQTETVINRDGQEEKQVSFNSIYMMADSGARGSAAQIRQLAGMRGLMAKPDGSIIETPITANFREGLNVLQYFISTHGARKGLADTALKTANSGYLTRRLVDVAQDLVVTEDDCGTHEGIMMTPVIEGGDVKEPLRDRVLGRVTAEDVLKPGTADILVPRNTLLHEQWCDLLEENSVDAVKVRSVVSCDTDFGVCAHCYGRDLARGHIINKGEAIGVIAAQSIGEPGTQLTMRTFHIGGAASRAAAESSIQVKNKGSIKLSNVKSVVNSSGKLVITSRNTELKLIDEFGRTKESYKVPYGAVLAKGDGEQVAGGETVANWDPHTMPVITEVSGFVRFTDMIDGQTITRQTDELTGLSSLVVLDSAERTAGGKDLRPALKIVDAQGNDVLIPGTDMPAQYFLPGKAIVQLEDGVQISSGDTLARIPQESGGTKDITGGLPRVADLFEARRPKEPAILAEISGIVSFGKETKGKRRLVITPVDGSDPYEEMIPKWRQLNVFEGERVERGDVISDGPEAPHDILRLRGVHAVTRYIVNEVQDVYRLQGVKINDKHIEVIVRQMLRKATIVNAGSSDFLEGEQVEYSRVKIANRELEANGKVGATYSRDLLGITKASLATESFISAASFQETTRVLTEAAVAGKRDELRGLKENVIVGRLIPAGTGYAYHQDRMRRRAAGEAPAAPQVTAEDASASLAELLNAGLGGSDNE
Chain of UniProt Q62976 (whole entry, unmodified, looked up): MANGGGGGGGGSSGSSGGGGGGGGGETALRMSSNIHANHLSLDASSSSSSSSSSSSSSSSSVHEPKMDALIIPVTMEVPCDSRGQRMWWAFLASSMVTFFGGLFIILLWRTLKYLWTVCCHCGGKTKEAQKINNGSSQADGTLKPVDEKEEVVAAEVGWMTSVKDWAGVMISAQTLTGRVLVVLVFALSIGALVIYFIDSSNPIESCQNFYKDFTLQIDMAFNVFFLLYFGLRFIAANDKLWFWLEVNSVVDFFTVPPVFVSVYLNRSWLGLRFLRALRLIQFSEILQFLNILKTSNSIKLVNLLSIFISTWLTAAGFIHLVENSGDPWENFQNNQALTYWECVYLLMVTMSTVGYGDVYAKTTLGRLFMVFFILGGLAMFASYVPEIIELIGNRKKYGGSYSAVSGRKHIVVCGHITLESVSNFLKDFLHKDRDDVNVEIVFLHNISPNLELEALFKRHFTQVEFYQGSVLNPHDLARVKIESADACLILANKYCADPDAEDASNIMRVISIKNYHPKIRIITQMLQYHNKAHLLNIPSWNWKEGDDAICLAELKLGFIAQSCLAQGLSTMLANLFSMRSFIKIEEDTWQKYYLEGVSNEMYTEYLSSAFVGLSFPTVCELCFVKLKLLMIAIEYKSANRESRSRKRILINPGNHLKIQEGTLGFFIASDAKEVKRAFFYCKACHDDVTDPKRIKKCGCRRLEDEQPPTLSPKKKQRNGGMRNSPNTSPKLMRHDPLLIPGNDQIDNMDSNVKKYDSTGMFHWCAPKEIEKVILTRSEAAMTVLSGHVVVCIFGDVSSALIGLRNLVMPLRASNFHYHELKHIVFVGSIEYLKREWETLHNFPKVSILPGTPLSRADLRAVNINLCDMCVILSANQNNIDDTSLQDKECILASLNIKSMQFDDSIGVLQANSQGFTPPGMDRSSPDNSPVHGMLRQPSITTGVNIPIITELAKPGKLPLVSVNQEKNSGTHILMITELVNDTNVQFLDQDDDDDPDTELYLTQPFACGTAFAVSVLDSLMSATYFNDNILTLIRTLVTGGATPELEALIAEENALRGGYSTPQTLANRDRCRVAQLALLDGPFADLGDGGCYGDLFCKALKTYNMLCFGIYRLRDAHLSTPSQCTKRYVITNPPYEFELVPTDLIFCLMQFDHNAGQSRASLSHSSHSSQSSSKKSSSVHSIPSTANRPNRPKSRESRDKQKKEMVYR

Substance	target or system	assay	system	setting	how to read	quantity	value
p2o (Trametes ochracea, UniProt Q7ZA32)	CN(C)c1ccc2nc3ccc(N(C)C)c([N+](=O)[O-])c3[s+]c2c1	steady-state kinetics		pH 6.5, 22 °C, apparent		kcat	1.63 ± 0.1 s⁻¹
COc1cc2c3cc1Oc1cc(ccc1O)C[C@@H]1c4c(cc(OC)c(O)c4Oc4ccc(cc4)C[C@@H]3N(C)CC2)CC[N+]1(C)C	Chrnd/Chrna1/Chrne (Mus musculus, UniProt P02716+P04756+P20782)	fit of effect decay kinetics	mouse diaphragm	AChE inhibited		Kd	0.04 to 0.1 µM and 0.053 µM
QPLRKLCILHRNPGRCYQKIPAFYYNQKKKQCEGFTWSGCGGNSNRFKTIEECRRTCIRK (dendrotoxin I; ends and bridges not checked; cysteine pairing not given here; sequence looked up)	Calcium-activated potassium channel subunit alpha-1 (Kcnma1, Rattus norvegicus, UniProt Q62976)	blocker, planar bilayer single channel		together with: BP	relative to: singly occupied channel	ΔΔG‡ dissociation	1.1 kcal/mol
CC[C@H](C)[C@H](NC(=O)[C@@H](NC(=O)[C@H](CC(C)C)NC(=O)[C@H](CC(N)=O)NC(=O)[C@H](CC(=O)O)NC(=O)[C@H](CCC(=O)O)NC(=O)[C@@H](NC(=O)[C@@H](N)CCCNC(=N)N)[C@@H](C)CC)C(C)C)C(=O)N[C@H](C(=O)N[C@@H](CCCNC(=N)N)C(=O)O)[C@@H](C)CC	Epithelial sodium channel subunit beta (Homo sapiens, UniProt P51168)	isothermal titration calorimetry		recombinant, His and GST tag		Kd	0.01 to 0.1 µM
NCCc1c(SSc2[nH]c3cc(Br)ccc3c2CCN)[nH]c2cc(Br)ccc12	Potassium voltage-gated channel subfamily A member 4 (KCNA4, Homo sapiens, UniProt P22459)	activation time constant, whole-cell patch clamp	CHO-K1			Kd	2.9 ± 1 µM
CC[C@H](C)[C@H](NC(=O)[C@H](C)NC(=O)[C@H](CO)NC(=O)[C@H](CC(=O)O)NC(=O)[C@H](CO)NC(=O)[C@H](Cc1ccccc1)NC(=O)[C@H](CS)NC(=O)[C@H](CC(=O)O)NC(=O)[C@H](Cc1ccccc1)NC(=O)[C@H](Cc1ccc(O)cc1)NC(=O)[C@H](Cc1ccc(O)cc1)NC(=O)[C@H](CC(C)C)NC(=O)[C@H](Cc1c[nH]cn1)NC(=O)[C@@H](NC(=O)[C@H](CC(C)C)NC(=O)[C@H](CCC(N)=O)NC(=O)[C@H](CC(=O)O)NC(=O)[C@H](C)NC(=O)[C@H](CC(C)C)NC(=O)[C@@H](N)CCC(=O)O)[C@@H](C)CC)C(=O)N[C@@H](CCCNC(=N)N)C(=O)N[C@@H](CCCCN)C(=O)N[C@@H](C)C(=O)N[C@@H](CC(C)C)C(=O)N[C@@H](CC(C)C)C(=O)NCC(=O)N[C@@H](Cc1c[nH]cn1)C(=O)N[C@H](C(=O)N[C@H](C(=O)N[C@@H](CO)C(=O)N1CCC[C@H]1C(=O)N[C@@H](CCCNC(=N)N)C(=O)N[C@@H](CS)C(=O)N[C@@H](CCC(=O)O)C(=O)N[C@@H](Cc1ccc(O)cc1)C(=O)N[C@@H](CCC(N)=O)C(=O)N[C@@H](C)C(=O)NCC(=O)N[C@@H](Cc1c[nH]cn1)C(=O)N[C@@H](CC(N)=O)C(=O)N[C@@H](CCCCN)C(=O)N[C@H](C(=O)O)C(C)C)C(C)C)[C@@H](C)CC	zinc	binding, competitive PAR titration		pH 7.4		Kd	0.054 ± 0.01 µM
bavachinin	Spike glycoprotein	biolayer interferometry				Kd	34.7 µM
CC(=O)O[C@@H]1[C@H](N)[C@@H](OP(=O)(O)O)[C@@]2(C(=O)O)CS[C@@](O)(C(N)=O)[C@@H]1O2	DNA-directed RNA polymerase subunit beta' / DNA-directed RNA polymerase subunit beta (rpoC/rpoB, Escherichia coli, UniProt P0A8T7+P0A8V2)	binding to elongation complex, 6-MI fluorescence titration	wild-type RNAP	riboside RNA 3′-end Cytosine		Kd	0.11 ± 0.04 µM
acetyl pepstatin	Gag-Pol polyprotein, protease (Human immunodeficiency virus type 1 group M subtype B, UniProt P03367)	DSC extrapolation		25 °C		Kd	2.96 µM
O=C(O)CC(O)(CC(=O)O)C(=O)O	UDP-galactopyranose mutase (Corynebacterium diphtheriae, UniProt Q6NER4)	binding				Kd	~8700 µM
AaH II scorpion toxin	rat Nav1.2a/Kv2.1 VSD IV chimera	two-electrode voltage clamp	Xenopus oocytes	22 °C		Kd	1.01 ± 0.092 µM
Tubeimoside I	Spike glycoprotein	biolayer interferometry				Kd	58 µM

Some of these lines once more:
Substance	target or system	assay	system	setting	how to read	quantity	value
p2o (Trametes ochracea, UniProt Q7ZA32)	CN(C)c1ccc2nc3ccc(N(C)C)c([N+](=O)[O-])c3[s+]c2c1	steady-state kinetics		pH 6.5, 22 °C, apparent		kcat	1.63 ± 0.1 s⁻¹
